Assay results collected from several papers.
Every numbered part comes from another study and shows a few of its results, in no order. Changes are numbered by the printed parent chain.

Set 1 — target: CCNF, cyclin fold, Cln2 fusion (human); method: yeast growth competition, sequencing; sample: yeast; setting: strong parent motif; baseline: not given; reading: higher = stronger binding
Starting sequence: KIF20B docking peptide (human); KRAKRKLYTSEIS
`KRAKRKAYTSEIS [L7A]`: “normalised enrichment score” 0.79.
Under “normalised enrichment score”, `KRAKRKLYASEIS [T9A]` is recorded as 1.35.
For `KRAKRKLATSEIS [Y8A]`, “normalised enrichment score” read 0.159.
Under “normalised enrichment score”, `KRAARKLYTSEIS [K4A]` is recorded as 1.81.
For `ARAKRKLYTSEIS [K1A]`, “normalised enrichment score” read 2.74.
Under “normalised enrichment score”, `KRAKRKLYTSEAS [I12A]` is recorded as 1.56.

Set 2 — method: protein-binding microarray; form: double-stranded DNA, one strand shown; sample: in vitro; tested at: 2200 nM top; setting: 60-bp whole probe; together with: salmon DNA 0.4 mg/ml; baseline: random background probes; reading: higher = stronger binding; constant ends, left off below: GCCTAGCAC … GTCTTGATTCGCTTGACGCTGCTG
Target: Interferon regulatory factor 7, full length, phosphomimetic (IRF7, Homo sapiens, UniProt Q92985, residues 1-503, S471D/S472D/S475D/S476D/S477D/S483D/S484D/S487D)
Residues (chain): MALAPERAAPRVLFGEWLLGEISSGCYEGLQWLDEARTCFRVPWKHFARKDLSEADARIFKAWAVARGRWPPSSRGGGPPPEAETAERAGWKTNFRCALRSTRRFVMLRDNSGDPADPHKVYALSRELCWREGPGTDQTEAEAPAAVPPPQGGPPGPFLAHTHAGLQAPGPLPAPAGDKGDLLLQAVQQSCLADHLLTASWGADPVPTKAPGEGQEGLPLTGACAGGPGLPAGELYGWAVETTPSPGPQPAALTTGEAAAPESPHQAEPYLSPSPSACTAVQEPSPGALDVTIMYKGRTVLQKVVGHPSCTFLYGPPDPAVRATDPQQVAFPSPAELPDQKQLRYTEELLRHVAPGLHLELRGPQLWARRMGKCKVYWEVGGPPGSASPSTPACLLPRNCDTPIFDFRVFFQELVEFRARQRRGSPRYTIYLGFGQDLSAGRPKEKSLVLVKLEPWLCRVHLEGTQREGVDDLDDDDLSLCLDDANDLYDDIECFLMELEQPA
`TTAGGCCTGGACTATCGGTTAGTGCTA` — result for “fitted relative affinity”: -0.344 z-score.
For `ATAAACTTAGTTTTCAATTTGTGCTAG`, “fitted relative affinity” read 1.16 z-score.
`TTTTTTTTTTTTTTTACTTCGTGCTAG` — result for “fitted relative affinity”: 2.38 z-score.
For `GACGGTATCGGGGTTCGGGACGTGCTA`, “fitted relative affinity” read -0.258 z-score.
`TACTTTCTGAATGCTCCCCCTGTGCTA`: “fitted relative affinity” 5.98 z-score.
`TTAGATATCCTACTGCTTTAGTGCTAG` — result for “fitted relative affinity”: 0.615 z-score.
`TTTGGTTTCCTACTGCTTTAGTGCTAG`: “fitted relative affinity” 2.74 z-score.
Under “fitted relative affinity”, `CACGGTTTCCTTTTCCTGACGTGCTAG` is recorded as 5.45 z-score.
Under “fitted relative affinity”, `GACGGTTTCTGACTGGGGACGTGCTAG` is recorded as 1.53 z-score.
`TTAGGACTGGGGTATCCGTTAGTGCTA` — result for “fitted relative affinity”: -0.6 z-score.
`TTAGGTTTCGGTTTCTGTTAGTGCTAG`: “fitted relative affinity” 14.3 z-score.
`TCAGCTTACAATATAAAACTGTGCTAG`: “fitted relative affinity” 0.071 z-score.
`GGTCTTTCCGATTAGTCCCCGTGCTAG` — result for “fitted relative affinity”: 3.67 z-score.
For `TCATATATATTGTTAGTACTGTGCTAG`, “fitted relative affinity” read 0.761 z-score.
`CACTGCATCTGATTTCTCAAAGTGCTA`: “fitted relative affinity” 0.864 z-score.
For `GCCGGTTTCGGTCTCGGGACGTGCTAG`, “fitted relative affinity” read 8.1 z-score.
Under “fitted relative affinity”, `ATAGGACTGGGGACTGGGTTAGTGCTA` is recorded as -0.678 z-score.
For `GCATCTCGGAGATCTCGAAGCGTGCTA`, “fitted relative affinity” read 0.568 z-score.
`TTAGGTTCCCTTTTCCCTTAGTGCTAG` — result for “fitted relative affinity”: 3.16 z-score.
Under “fitted relative affinity”, `GACGGTATCGGGTAGCGGGACGTGCTA` is recorded as -0.408 z-score.
`TCAGCTCTGTTGCCTGGTACTGTGCTA` — result for “fitted relative affinity”: 0.799 z-score.

Set 3 — method: RNA Bind-n-Seq; form: RNA; sample: in vitro; tested at: 20 nM; setting: 6-mer, flanks averaged, single round; together with: 150 mM LiCl; baseline: input library; reading: higher = stronger binding
Target: TAR DNA-binding protein 43, full length, His tag (TARDBP, Homo sapiens, UniProt Q13148, residues 1-414)
`CUAAGA` — result for “6-mer enrichment (R)”: 0.819.
For `CGAUUC`, “6-mer enrichment (R)” read 0.829.
For `CGCGAA`, “6-mer enrichment (R)” read 0.847.
For `GUGGGC`, “6-mer enrichment (R)” read 1.25.
Under “6-mer enrichment (R)”, `CCUAGG` is recorded as 0.878.
`CGUGAC`: “6-mer enrichment (R)” 0.902.
`AGCCCA` — result for “6-mer enrichment (R)”: 0.924.
`UCGACG` — result for “6-mer enrichment (R)”: 0.835.
For `UAUGUU`, “6-mer enrichment (R)” read 1.37.
Under “6-mer enrichment (R)”, `GUAGUU` is recorded as 1.08.
`GGCCAG` — result for “6-mer enrichment (R)”: 1.02.
`ACUAAG`: “6-mer enrichment (R)” 0.828.
Under “6-mer enrichment (R)”, `GUACCG` is recorded as 0.892.
Under “6-mer enrichment (R)”, `GUGAUG` is recorded as 1.27.
Under “6-mer enrichment (R)”, `AUUCCA` is recorded as 0.901.
`AUUCUG` — result for “6-mer enrichment (R)”: 0.92.
For `GCAGUG`, “6-mer enrichment (R)” read 1.14.
For `CCCCGC`, “6-mer enrichment (R)” read 1.2.
`UUAACA`: “6-mer enrichment (R)” 0.874.
Under “6-mer enrichment (R)”, `UCUCGU` is recorded as 0.904.
Under “6-mer enrichment (R)”, `CAGGGU` is recorded as 1.03.
`AAUGUG`: “6-mer enrichment (R)” 1.32.
Under “6-mer enrichment (R)”, `GGUUUU` is recorded as 1.26.

Set 4 — method: RNA Bind-n-Seq; form: RNA; sample: in vitro; tested at: 100 nM; baseline: input RNA pool; reading: higher = stronger binding
Target: RING finger protein unkempt homolog, zinc fingers 1-6, SBP tag (UNK, Homo sapiens, UniProt Q9C0B0, residues 30-357)
Chain of UniProt Q9C0B0 (30-357, looked up): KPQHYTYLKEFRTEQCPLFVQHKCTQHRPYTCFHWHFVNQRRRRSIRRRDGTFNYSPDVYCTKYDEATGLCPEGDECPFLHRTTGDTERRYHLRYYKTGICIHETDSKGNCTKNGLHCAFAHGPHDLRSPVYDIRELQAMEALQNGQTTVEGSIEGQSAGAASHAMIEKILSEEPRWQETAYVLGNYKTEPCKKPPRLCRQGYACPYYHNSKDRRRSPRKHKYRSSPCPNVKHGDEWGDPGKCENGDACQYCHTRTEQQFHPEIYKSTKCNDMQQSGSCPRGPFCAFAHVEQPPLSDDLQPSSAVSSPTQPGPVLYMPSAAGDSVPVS
Setting: RNA with constant flanks, vertebrate orthologous sites, ends assumed
Constant ends, left off below: GGGAGUUCUACAGUCCGACGAUC … CAACAGAGGAUUGAGCAUCA
With `AAGCCCUGUGAAGGUCUACUGACCACUCACUAUCGUCUGGUAUCUGUAAACACUUCUGUUUAGUCCUUUCAUUGUAUAAUUGAUGUUCUUUACAACUGUCGAUGUAAAACAGGGCUUAUG` the bound/input enrichment was 0.869 ratio.
`AAAGGAAUAAUCCUGGCUGCUUUUUGUGAGGUAAAGUGUCCCUUGACAUAUGGUUGAUACCAGCACCAUUAUCCCAAAUAUGUUUUUCAACGUUUCAUUUCUUUCAUGUAGUCUUUAAAA` has a bound/input enrichment of 0.794 ratio.
`CUCCCCGUUACCCCUAAGGUAGAACUUUUUAAAAUUGUGUCACCACCACUUCCAAAAAUUUAGCAAUAUUGGAAGAAAAUGCUAAUAAAGUAAAAAAAAAUUUGCUUGCUGUUUUGGAAA` gave a bound/input enrichment of 0.274 ratio.
For `CAACUCCAUGGUUGAGGGCUCAGAACUCAAAAAGCUUCGCUCCAACUCUAGAAUCUACCACAGGUAUUUUUUGCUGGAUGCUGACAUGCAGAGCCUGAGGUGGGAACCAUCGAAGAAAGA`, the bound/input enrichment was 0.135 ratio.
With `AAAUUUAUUUCAUGCCCUGGACUCCCUACCGCACCGAUACUUUAAUAGAAUAUGCCUCUAUUGAAGAUUUCCAAAACAGUCGCCAAACAACGACAUACAAACUUCCAAACCGAGUAGAUG` the bound/input enrichment was 0.738 ratio.
The bound/input enrichment of `GUUCUUAUUACACUCUUCUAGGGAAGAGAUGAACUGGGGAAAACUCUCCUUUUUAUAGAUUAAUUUCUCUCUAAAUUAUGACCAAAAAUAUUUUGCUAUUUCUUUCUUUAUAUAUGCACA` is reported as 1.44 ratio.
For `AAAUAUACUUCAUGCCAUGGACUCCAUAUCGCACUGAUACUUUGAUAGAAUAUGCUUCUUUAGAGGACUUCCAAAAUGGACGCCAACAGACAACUUACAAACUUCCAAAUCGAGUGGACG`, the bound/input enrichment was 1.54 ratio.
The bound/input enrichment of `UAUUGUAUGUAGAGAAAAAGUUCGAUUGGCCACAUUGUGAAAUUCCCUAGCAAAUUUAUUUAGAAUCUUAAUUUUUCUAUUUCAGGGUCACCGUAGCAGGGUGCAUUUCAUGCCUUAUUU` is reported as 6.68 ratio.
For `UAUUUUCUUAUUUUAGGUAUCAUUGCCCAAUGCCUAAGAUCUUUUACGUUCAGCUCACUGUAGGAAAUAAUGAAUUUUUUGGGGAAGGAAAGACUCGACAAGCUGCUAGACACAAUGCUG`, the bound/input enrichment was 1.3 ratio.
The bound/input enrichment of `CUCACUUCUAGGUUGGACCUAGUGGAAAAGUCAUAGGAAUUGACCAUAUUAAAGAACUAGUAGAUGACUCAAUAAAUAAUGUCAGAAAGGAUGAUCCAAUGCUUUUGUCUUCAGGGAGAG` is reported as 1.05 ratio.
For `UAAUGUGUUUUUAUUUAUUGAAAAUAGUUUUGUGCUAAGGAUUGUGUUAGAUUUACAAAUUAGUGGAUUGAUUGCUCUUUGUUGUGUUGCUUUCAUUGUUGAAAAUAAAUAGAACUUUGA`, the bound/input enrichment was 1.02 ratio.

Set 5 — method: protein binding microarray; form: double-stranded DNA, one strand shown; sample: in vitro; tested at: not given; baseline: not given; reading: higher = stronger binding
Target: Histone acetyltransferase KAT6A, winged helix 2, GST fusion (KAT6A, Homo sapiens, UniProt Q92794, residues 85-181)
Setting: 8-mer, flanks averaged, mean of 2 arrays, mostly near background
Construct (chain): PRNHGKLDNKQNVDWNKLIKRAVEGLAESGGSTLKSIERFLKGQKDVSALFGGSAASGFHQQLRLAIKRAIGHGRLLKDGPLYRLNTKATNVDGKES
For `AGTTACAC`, the E-score was 0.112.
For `GGGGTCGA`, the E-score was -0.0469.
With `AGAGCAAC` the E-score was 0.19.
For `AGCCTATG`, the E-score was -0.174.
For `AGGTACTA`, the E-score was -0.0518.
With `CTGTTTTA` the E-score was -0.141.
`CTTTATGA` gave an E-score of -0.00786.
The E-score of `GTACGGGA` is reported as -0.077.
`AATTCGTG` has an E-score of -0.00467.
For `CAAACTAA`, the E-score was 0.12.
For `ATGTATCA`, the E-score was -0.086.
`CCCTGAGG` has an E-score of 0.0218.
`ATTTCCCC` has an E-score of -0.148.
The E-score of `GATCTGGA` is reported as 0.0873.
`ACTACGTG` gave an E-score of -0.224.
`CAATTACA` has an E-score of 0.0272.
`ACAGCGAT` has an E-score of -0.0436.
The E-score of `ACATTGCA` is reported as -0.0828.
For `CCTTGTAC`, the E-score was -0.0919.
`CCCTATCG` gave an E-score of -0.0912.
`GGTTTGAC` gave an E-score of 0.049.
The E-score of `ACACGCGC` is reported as 0.172.
`CATGTCAA` has an E-score of -0.1.
The E-score of `CATTCCCC` is reported as 0.061.
`AAAGAGAC` has an E-score of 0.0896.

Set 6 — method: universal PBM; form: double-stranded DNA, one strand shown; sample: in vitro; tested at: 600 nM; reading: higher = stronger binding
Target: Sal-like protein 4, full length isoform A (SALL4, Homo sapiens, UniProt Q9UJQ4, residues 1-1053)
Chain of UniProt Q9UJQ4 (whole entry, looked up): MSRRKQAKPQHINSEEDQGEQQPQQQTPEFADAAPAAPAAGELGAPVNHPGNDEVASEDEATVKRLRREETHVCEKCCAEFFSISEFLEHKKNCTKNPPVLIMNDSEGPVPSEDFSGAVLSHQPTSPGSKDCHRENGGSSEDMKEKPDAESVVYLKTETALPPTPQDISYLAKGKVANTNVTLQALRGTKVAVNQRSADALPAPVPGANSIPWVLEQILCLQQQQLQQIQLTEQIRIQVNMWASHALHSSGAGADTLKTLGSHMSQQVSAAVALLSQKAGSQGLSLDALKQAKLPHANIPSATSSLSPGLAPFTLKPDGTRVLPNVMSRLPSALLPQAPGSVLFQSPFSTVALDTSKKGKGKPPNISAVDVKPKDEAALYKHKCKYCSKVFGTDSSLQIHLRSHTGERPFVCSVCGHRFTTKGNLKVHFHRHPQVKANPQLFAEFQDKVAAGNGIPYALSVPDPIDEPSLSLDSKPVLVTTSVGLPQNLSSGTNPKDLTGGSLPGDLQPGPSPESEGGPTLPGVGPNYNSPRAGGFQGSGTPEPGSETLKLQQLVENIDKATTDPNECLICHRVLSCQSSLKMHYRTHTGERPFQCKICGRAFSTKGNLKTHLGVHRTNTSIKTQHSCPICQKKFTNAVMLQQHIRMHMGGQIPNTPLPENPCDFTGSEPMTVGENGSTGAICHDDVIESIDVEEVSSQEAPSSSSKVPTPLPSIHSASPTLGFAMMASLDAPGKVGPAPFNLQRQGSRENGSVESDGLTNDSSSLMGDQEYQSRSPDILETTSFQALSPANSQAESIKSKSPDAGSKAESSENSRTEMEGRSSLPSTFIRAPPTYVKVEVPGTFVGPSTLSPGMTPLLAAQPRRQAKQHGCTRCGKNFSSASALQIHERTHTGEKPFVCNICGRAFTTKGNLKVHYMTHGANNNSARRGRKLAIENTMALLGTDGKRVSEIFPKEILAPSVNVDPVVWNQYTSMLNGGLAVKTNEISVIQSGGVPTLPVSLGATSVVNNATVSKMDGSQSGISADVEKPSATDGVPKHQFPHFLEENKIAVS
Setting: 8-mer, flanks averaged, mean of replicates
With `CCGCTACG` the E-score was -0.277.
The E-score of `ATTCAATC` is reported as 0.185.
The E-score of `AGATACAC` is reported as 0.0777.
`AGATACGA` has an E-score of 0.137.
`CGAGAGCC` gave an E-score of -0.246.
The E-score of `AATCCTAG` is reported as 0.121.
With `ATTGCGAG` the E-score was 0.131.
The E-score of `ACTAGATG` is reported as 0.074.
`CATTCGGC` has an E-score of -0.159.
The E-score of `ATTAGATC` is reported as 0.161.
For `CAGTGACA`, the E-score was 0.0233.
The E-score of `CCATTGTA` is reported as 0.176.
With `AGCGGTTG` the E-score was -0.252.
`CCCCAGCG` has an E-score of -0.364.
For `ACAGACAC`, the E-score was -0.0816.
The E-score of `AGAAGTTA` is reported as 0.203.
`AATCCGTG` has an E-score of -0.081.
With `GCCTGCCA` the E-score was -0.233.
